Measured values gathered from unrelated publications.
Numbered parts are unrelated; each lists some results of a single study. Positions count from the first letter of the parent shown.

Sample 1 — technique: RNAcompete; molecule type: RNA; sample: in vitro; concentration: 20 nM; notes: 7-mer, probes averaged, single round; baseline: mean of 7-mers; direction: higher = stronger binding
Target: PABPC1L2, full length, GST fusion (mouse, UniProt A0ABA7IW68)
Target sequence (chain): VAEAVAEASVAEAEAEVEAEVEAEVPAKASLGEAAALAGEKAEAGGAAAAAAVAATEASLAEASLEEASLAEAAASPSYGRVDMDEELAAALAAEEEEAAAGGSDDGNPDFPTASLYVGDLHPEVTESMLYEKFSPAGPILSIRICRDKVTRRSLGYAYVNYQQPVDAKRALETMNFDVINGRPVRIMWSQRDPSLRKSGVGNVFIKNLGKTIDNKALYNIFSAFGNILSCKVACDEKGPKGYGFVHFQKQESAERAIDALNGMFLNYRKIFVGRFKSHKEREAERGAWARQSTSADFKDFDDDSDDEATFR
Sequence	7-mer Z-score
CCGGCAA	-0.217
UCAUGGA	-0.0391
AUAUCAA	0.16
UAGAUGA	-0.0826
GCUGUAG	-0.101
GAUCUUA	-0.258
CUUCUUU	-0.199
AAUGCUC	0.00436
UGAUCAA	0.0986
ACCGGGC	0.209
CGCUUUG	-0.335
AGUUGCC	-0.0482
ACAGAUC	0.283
GGAGUCA	-0.0681
UUCAACU	-0.315
GCGCAUC	-0.159
CGUUCCA	-0.249
AAACGCC	0.62

Sample 2 — target: NFIL3, bZIP domain (human); technique: DHFR protein complementation; sample: yeast; baseline: wild-type JUN-FOS pair; direction: higher = stronger binding
Notes: single substitutions, most at no-binding floor
Starting sequence: JUN, bZIP domain (human); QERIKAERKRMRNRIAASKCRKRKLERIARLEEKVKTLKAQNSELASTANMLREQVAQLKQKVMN; partner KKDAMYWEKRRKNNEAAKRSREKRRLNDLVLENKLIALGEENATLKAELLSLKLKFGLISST
Variant	binding fitness
L45E	-1.59 natural log
L52C	-1.43 natural log
V56T	-1.53 natural log
L45V	-1.48 natural log
E33F	-1.62 natural log
K39A	-1.34 natural log
T37L	-1.34 natural log
K36G	-1.44 natural log
E54G	-1.42 natural log
A29N	-1.47 natural log
S47H	-1.31 natural log
L38S	-1.48 natural log
I28V	-1.52 natural log
A46Q	-1.49 natural log
A49T	-1.51 natural log
E44V	-1.43 natural log
T48W	-1.35 natural log
E44D	-1.59 natural log
I28L	-1.3 natural log
E54V	-1.42 natural log
A49Y	-1.31 natural log
T37G	-1.39 natural log
A49V	-1.51 natural log
L52I	-1.37 natural log
A49G	-1.46 natural log

Sample 3 — technique: DHFR PCA, deep sequencing; sample: yeast; with: (+)-ABA 1.4 µM; baseline: wild-type fitted maximum; direction: higher = stronger binding
Target: ABI1, truncated, D143A, DHFR fusion (Arabidopsis thaliana)
Notes: methotrexate growth selection, single substitutions
Starting sequence: PYL1, truncated, DHFR fusion (Arabidopsis thaliana); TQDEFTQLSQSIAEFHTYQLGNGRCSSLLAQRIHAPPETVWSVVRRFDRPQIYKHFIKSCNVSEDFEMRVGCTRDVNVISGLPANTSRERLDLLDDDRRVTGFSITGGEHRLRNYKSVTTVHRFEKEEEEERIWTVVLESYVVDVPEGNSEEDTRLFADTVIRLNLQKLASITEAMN
Variant	relative binding score [%]
T1S	58.5
N149I	21.1
D3E	47.7
T154Q	-14.1
V100A	55.1
S80A	1.38
S87F	15.8
T160H	20.2
I172Y	24.6
E152N	27.9
K126Y	62.8
G71L	0.853
G71C	1.41
V62M	26.7

Sample 4 — technique: protein binding microarray; molecule type: double-stranded DNA, one strand shown; sample: in vitro; concentration: not given; baseline: not given; direction: higher = stronger binding
Target: Histone acetyltransferase KAT6A, both winged helices, GST fusion (KAT6A, Homo sapiens, UniProt Q92794, residues 1-181)
Notes: 8-mer, flanks averaged, mean of 2 arrays, mostly near background
Construct (chain): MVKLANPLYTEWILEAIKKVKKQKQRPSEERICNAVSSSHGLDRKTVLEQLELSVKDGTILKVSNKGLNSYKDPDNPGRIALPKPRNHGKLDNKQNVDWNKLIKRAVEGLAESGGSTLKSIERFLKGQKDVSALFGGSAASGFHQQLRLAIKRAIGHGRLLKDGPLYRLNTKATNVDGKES
Sequence	E-score
CGTTGACA	-0.0116
AATTATGC	0.0496
AGAGACAG	-0.165
GCGGACCA	0.25
ACACTACG	0.169
ATAGTTGC	-0.0605
CCAGTTTC	-0.0977
CTACCCAG	-0.273
AACAAATT	-0.126
CCTGGTTC	-0.077
TAAGCGCA	0.177
CGTCAGCC	0.162
CACCGCCG	0.326
GCCGCCGC	0.383
CTTAACTC	-0.189
CGTTCGAG	0.075
CTGGGAGC	0.00982

Sample 5 — target: CCNE2, cyclin fold, Cln2 fusion (human); technique: yeast growth competition, sequencing; sample: yeast; notes: strong parent motif; baseline: not given; direction: higher = stronger binding
Starting sequence: E2F1 docking peptide (human); PPVKRRLDLETDH
Variant	normalised enrichment score
H13A	0.894
D8H	0.469
K4C	1.47
T11D	0.798
D8C	1.56
P2I	0.5
H13I	1.38
L7T	0.393
R5K	-0.237
V3T	0.621
D12V	2.24
R5W	0.104
V3L	-0.503
K4A	0.932
K4Y	-0.0457
E10D	2.26
R5S	0.0734
D12R	1.62
K4N	-0.257
H13W	1.55
K4R	1.87
L7V	-0.176
D12Q	2.47
H13N	0.939
P2T	1.09

Sample 6 — technique: RNA Bind-n-Seq; molecule type: RNA; sample: in vitro; concentration: 365 nM; baseline: no-protein control; direction: higher = stronger binding
Target: RNA binding protein fox-1 homolog 2, RRM domain, GST-SBP tag (RBFOX2, Homo sapiens, UniProt O43251-10, residues 100-194)
Notes: natural RNA segment, single round, ends assumed
Shared flanks, not repeated: GGGAGUUCUACAGUCCGACGAUC … UGGAAUUCUCGGGUGCCAA
Target sequence (chain): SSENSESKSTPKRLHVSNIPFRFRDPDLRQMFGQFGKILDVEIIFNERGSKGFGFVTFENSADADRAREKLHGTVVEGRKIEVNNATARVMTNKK
Sequence	RBNS enrichment (R)
GCCUGACAUUUGGAGUGUUCCCCUUCCACUGAGGGCAGUCGAUAGAGCUGUAUUAAGCCACUUAAAAUGUUCACUUUUGACAAAGGCAAGCACUUGUGGGUUUUUGUUUU	0.544
AGGUCUUCAGGUAUUCAGGAUAGAGAUAAUCUCCUGAAAAACCUGAAUUUCAGAGAUUCUUAGACUGGCUGCCAAAGGAUGAAGCUAGUGAAGGAGAAAAAGCUUAAAUU	1.15
GUUCCAAGGGUCCCCAGUGCUUCCCAUUCAGCAUCCCCAGGGAGCCCCCAAAGGUACUGAAAAGUCUCUGAUGCUCCUACUCCUGGAAAGAAGUCUGGGAAGCCCCUUUC	0.32
ACUCACGGUUUGCAUCAAGAGUGUUUUUUGUAACUGCCUCUGGACUUGGGACAGUGAGUAGGAUCAAAAAUAAAUAAUGUACAUGACGGGGAAGGGAAAAACCUGUUGGA	0.636
CAAGGUACAGGUUCAGUCCAGACUCUUUCCCCCUGGGACCAACAGCAGCCAGAGCAGUUAGCCAGUUAGUCCCCAGGCCUGUGGCCACAGGCGUUUCUGACCUGCUGGGC	0.208
UCCCCUGCCCCACCUCACCCACCCAGAGAAGCACAGACCCCGCCAGGGGCAGGGGCCCACCGCACACCCUUGUCCCGGGCCUGUCUGGGACUGGCCUUCCCGGCUCAGCC	0.737
CUGGGAGUUGAUCGCCUUUCCCAGGUGCUACACCCUUUUCCAGCUGGAUGAGAAUUUGAGUGCUCUGAUCCCUCUACAGAGCUUCCCUGACUCAUUCUGAAGGAGCCCCA	1.09
UUGUGAACCCCUCCCCCCAACUUUUCAUGUUUCUUAAAGGCAUUUUGGUUUUUUAAAAUCUGUACAGCAAGAGCAACUUUUUCUGUCAAAUAAAAAUGAGAAAUGCAGGA	0.553
UCGAGGAACUCCUGGAGGGUUUGAGCGUCUGGAAACUCUCUGCUCUGACCCGAGGAAGCACCCUCCUGACGCCGCCUUCCUCCGGUUAUUGAAAGGACGCCUCAGAAAUG	0.311
UUGUUUUCUUUGGUUUUUGUGUUUUUUUGGAGUUUGGCUGGAAGAGGUUUCUGUAAACCUGAAGCCUUGGUGCAUAGAGGGCUUUGUGGAAGCACAUAGUCAGCGGCUGG	0.991
UGAGAUCAAGCCUUUACUCCCUUUGAGAGUUUCCAACAUCAGUUGAUUGAGCUUCAGGCUUUACAACGUUUAUCCCUGUAGAGAUCAUCUUUACAGUUCCUCGGGAAAAU	0.27
GAGCUAUUUCCUAACGCAGAAGGAAUUUGUUGUUACUUUUUGGAUUGUACUCUUCUAGGCUGGACCGAAUUCAUAUGCAGAUUGAAGUGAGACCUGCUCUUUACAGAUGG	0.645

Sample 7 — technique: universal PBM; molecule type: double-stranded DNA, one strand shown; sample: in vitro; concentration: 600 nM; direction: higher = stronger binding
Target: Sal-like protein 4, full length isoform A (SALL4, Homo sapiens, UniProt Q9UJQ4, residues 1-1053)
Sequence of UniProt Q9UJQ4 (whole entry, looked up): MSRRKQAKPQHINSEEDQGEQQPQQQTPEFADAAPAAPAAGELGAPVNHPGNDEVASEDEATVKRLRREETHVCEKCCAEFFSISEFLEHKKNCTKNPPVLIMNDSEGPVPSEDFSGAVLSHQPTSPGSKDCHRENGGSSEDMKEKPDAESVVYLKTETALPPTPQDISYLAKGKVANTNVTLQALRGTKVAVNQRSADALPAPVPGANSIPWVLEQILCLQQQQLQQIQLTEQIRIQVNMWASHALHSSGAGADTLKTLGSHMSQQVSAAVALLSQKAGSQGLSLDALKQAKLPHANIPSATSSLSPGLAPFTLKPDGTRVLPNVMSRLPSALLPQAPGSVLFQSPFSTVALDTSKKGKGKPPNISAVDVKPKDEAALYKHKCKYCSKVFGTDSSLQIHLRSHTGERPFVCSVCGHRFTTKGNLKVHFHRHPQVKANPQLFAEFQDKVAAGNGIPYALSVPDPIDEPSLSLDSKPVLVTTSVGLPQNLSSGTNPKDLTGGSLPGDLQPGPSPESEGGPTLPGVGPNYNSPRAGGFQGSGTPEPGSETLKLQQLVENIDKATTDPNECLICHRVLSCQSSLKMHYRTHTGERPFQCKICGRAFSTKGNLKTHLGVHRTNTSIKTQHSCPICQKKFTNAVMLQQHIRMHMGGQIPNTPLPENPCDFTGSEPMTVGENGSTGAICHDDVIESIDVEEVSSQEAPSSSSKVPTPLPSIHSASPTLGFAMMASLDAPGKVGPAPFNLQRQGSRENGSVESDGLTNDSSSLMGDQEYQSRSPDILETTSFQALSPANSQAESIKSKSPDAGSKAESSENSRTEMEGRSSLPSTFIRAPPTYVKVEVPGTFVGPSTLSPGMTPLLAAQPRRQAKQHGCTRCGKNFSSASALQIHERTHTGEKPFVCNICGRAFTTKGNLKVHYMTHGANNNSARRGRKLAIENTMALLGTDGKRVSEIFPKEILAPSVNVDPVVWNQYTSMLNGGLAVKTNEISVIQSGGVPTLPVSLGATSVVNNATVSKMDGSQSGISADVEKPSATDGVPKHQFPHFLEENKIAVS
Notes: 8-mer, flanks averaged, mean of replicates
Sequence	E-score
GGTAGTTA	0.0134
AACGAATC	0.184
CACCTAAG	-0.042
GTTATAAA	0.384
AGTCATAC	0.118
GCAAATGC	-0.11
GACCTTGC	-0.194
CAGGGTGC	-0.338
AGCGACCA	-0.0875
CTATTTAA	0.255
AACAATAA	0.424
ATTCTGGA	0.191
AACAGGAT	-0.0309
CAGTATGC	-0.0576
ACCACATG	0.0649
GTGGGCGA	-0.154
ATCTCGAG	-0.0011
CGCTGCGC	-0.332
GATTGTCC	-0.0916
ATAGCGAG	0.0211
GTTGTAAA	0.154
CGTTTGCA	0.0854
AAACGCGT	0.00158
CGACGCTA	-0.123
GGATGCCC	-0.4

Other studies, line by line
Molecule	target	assay	test system	setting	how to read	measurement	result
PhoQ, residues 284 288 289 292 302 303 SLSVQF	PhoP, residues 12 14 15 18 19 NMSFL (Escherichia coli, UniProt P23836)	Sort-seq, measured: YFP reporter	E. coli	PhoQ-PhoP variant library, with: 10 µM Mg2+	baseline: high Mg2+ state, higher = stronger signaling	fold induction	8.19

Excerpt of the above (sample 5):
Variant	normalised enrichment score
D8H	0.469
K4C	1.47
T11D	0.798
D8C	1.56
P2I	0.5
H13I	1.38
L7T	0.393
R5K	-0.237
V3T	0.621
D12V	2.24
R5W	0.104
V3L	-0.503
K4A	0.932
K4Y	-0.0457
E10D	2.26
R5S	0.0734
D12R	1.62
K4N	-0.257
H13W	1.55
K4R	1.87
L7V	-0.176
D12Q	2.47
H13N	0.939
